Results of several laboratories.
Protocols differ between the studies behind these lines. Values joined by “and” are separate records of one study, mostly repeats; a detail may differ. ± gives the spread as reported.

SMILES | test | test system | conditions | scale | endpoint | value
CC[C@H](C)[C@@H](C(=O)N[C@@H](CC(C)C)C(=O)N[C@@H](CO)C(=O)N[C@@H](CO)C(=O)N[C@H](C(=O)N[C@@H](CCC(=O)O)C(=O)N[C@H](C(=O)NCC(=O)N[C@@H](CO)C(=O)N[C@@H](CC(N)=O)C(=O)N[C@H](C(=O)N1C[C@H](O)C[C@H]1C(N)=O)[C@@H](C)O)C(C)C)[C@@H](C)O)N(C)C(=O)[C@H](C)NC(=O)CN(C)C(=O)[C@H](Cc1ccccc1)NC(=O)[C@H](CO)NC(=O)[C@H](CO)NC(=O)[C@H](CCCNC(=N)N)NC(=O)[C@H](CC(N)=O)NC(=O)[C@H](CC(C)C)NC(=O)[C@H](Cc1ccccc1)NC(=O)[C@H](Cc1c[nH]cn1)NC(=O)[C@H](C)NC(=O)[C@H](CC(C)C)NC(=O)[C@H](CCCNC(=N)N)NC(=O)[C@H](CCC(=O)O)NC(=O)[C@@H](NC(=O)[C@H](C)NC(=O)[C@@H]1CSSC[C@H](NC(=O)[C@H](CCCNC(=N)N)NC(=O)CC[C@H](NC(=O)CCCCCCCCCCCCCCCCCCC(=O)O)C(=O)O)C(=O)NCC(=O)N[C@@H]([C@@H](C)O)C(=O)N[C@@H](C)C(=O)N[C@@H]([C@@H](C)O)C(=O)N1)[C@@H](C)O | – | male Sprague-Dawley rats | subcutaneous, 30 nmol/kg single dose, 96 h | – | body weight loss | 10.2 ± 0.4%
CN1CCCNC(=O)c2cccc(c2)C(=O)NCCCN(C)CCCNc2cccc3c2C(=O)c2cccc(c2C3=O)NCCC1 | – | KSN/Slc nude mice, SAS xenograft | dose not given, day 2, 48 h | – | tumour volume | 99.7 mm3 and 110 mm3 and 159 mm3 and 101 mm3 and 51.5 mm3
COc1ccccc1C1CCN(CCC(=O)Nc2ccc(C)c(C)c2)CC1 | locomotor activity in dark | Danio rerio larvae, 7 dpf, well of 10 larvae | 10 µM, minute 5, dark | – | third-quartile larval motion | 1.7 ± 0.5 pixels/frame
CC(C)OC(=O)[C@H](CO)NCc1cc(Cl)c(OCc2cccc(-c3ccccc3)c2Br)cc1OCc1cccnc1 | – | hPD-L1 MC-38 tumour, humanised hPD-1 C57BL/6 mouse | oral, 10 mg/kg × 21 | – | tumour weight | 1.27 ± 0.79 g
COc1ccc(C(=O)CCc2cc(C(CCc3ccc(O)cc3OC)c3ccc(O)cc3)c(O)cc2OC)cc1 (racemic) | refers to: 12-HEPE | human whole blood | 1 µM, together with: A23187 | – | amount | 227 ± 78 pg/mL blood
Oc1cc2c(cc1O)C(c1ccc3[nH]ccc3c1)NCC2 (centres unmarked) | DPPH scavenging, absorbance | – | 30 min, dark | – | IC50 | 21.1 µM
CC(C)C[C@H](NC(=O)[C@H](Cc1ccccc1)NC(=O)[C@H](C)NC(=O)[C@@H](CS)NC(=O)CNC(=O)[C@H](N)CO)C(=O)N[C@@H](CO)C(=O)N[C@H](C(=O)N[C@@H](CCCCN)C(=O)N[C@@H](CCCCN)C(=O)N[C@@H](CCC(N)=O)C(=O)N[C@@H](Cc1ccccc1)C(=O)N[C@@H](CCC(=O)O)C(=O)N[C@@H](CCC(=O)O)C(=O)N[C@@H](CC(C)C)C(=O)N[C@H](C(=O)N[C@@H](CC(C)C)C(=O)NCC(=O)N[C@@H](CCC(=O)O)C(=O)N[C@@H](Cc1ccccc1)C(=O)N[C@@H](CC(C)C)C(=O)N[C@H](CCCCN)C(=O)N[C@H](CC(C)C)C(=O)N[C@H](CC(=O)O)C(=O)N[C@@H](CCCNC(=N)N)C(=O)N[C@H](CCCNC(=N)N)C(=O)N[C@@H](CCCNC(=N)N)C(=O)N[C@@H](CCCCN)C(=O)O)[C@@H](C)O)C(C)C | immunoblot, RT-qPCR | mouse A549 xenograft, tumour | dose not given | – | ABCG2 expression reduction | ~80%
CCC(CC)n1c(Cc2cccs2)nc2cc(C(=O)N[C@@H](CC(=O)O)c3ccccc3)ccc21 | – | mouse, HFpEF model (HFD plus L-NAME) | ip, 20 mg/kg/day, 2 wk | – | myocardial capillary density | increased
COc1cc(O)ccc1CCC(c1ccc(O)cc1)c1cc2c(c(C)c1O)OC(c1ccc(O)cc1)CC2 (mixture of isomers) | refers to: eicosapentaenoic acid | human whole blood | 3 µM, together with: Escherichia coli | – | amount | 53600 ± 13600 pg/mL blood
CN1CCC[C@]1(C)/C=C/S(=O)(=O)NC(=O)Nc1c2c(cc3c1CCC3)CCC2 | – | human, whole blood ex vivo | 100 mg twice daily, day 1, 6 h, multiple ascending dose, together with: LPS and ATP | – | IL-1β inhibition | 98.7%
O=C(NCC1OC2CCC=CCCC2O1)c1ccc(F)nc1 (centres unmarked) | IEDDA cycloaddition, substrate, stopped-flow spectrophotometry | water/methanol 45:55 | 1.5 mM, 298 K, together with: methyltetrazine-NHS 0.05 mM | – | observed rate constant kobs | 15.82 ± 0.0335 s⁻¹
CCOC(=O)NN | hydrazine ligation kinetics, absorbance | – | concentration not given, 20 s, together with: 2-formylphenylboronic acid | – | normalised absorbance | 0.682
COc1ccc(N2CCN(CC(O)COc3ccc4ccccc4c3)CC2)cc1 (centres unmarked) | locomotor activity in dark | Danio rerio larvae, 7 dpf, well of 10 larvae | 10 µM, minute 5, dark | – | third-quartile larval motion | 4.2 ± 0.9 pixels/frame
C[C@@H]1O[C@@H](Oc2ccc(CC(N)=O)cc2)[C@H](O)[C@H](O)[C@H]1O | ABTS radical | – | 300 µg/mL | – | radical scavenging | 21.1 ± 1.12%
COc1c(Cl)cccc1Nc1c(-c2ccncc2C#C[C@@]2(C)CCCN2C(=O)/C=C/CN(C)C)[nH]c2c1C(=O)NCC2 | – | CUTO14, EGFR ASV, female NSG mouse, CUTO14 xenograft | 100 mg/kg once daily, 21 days | – | tumour growth inhibition | 200%
NC[C@@H](C(=O)Nc1ccc(-c2cn[nH]c2)cc1)c1ccccc1 | tonometry | NZW rabbit, magnetic bead-induced ocular hypertension | ocular, 0.03%, 28 h | – | IOP | 31.8 mmHg
Cc1ccc(S(=O)(=O)NN)cc1 | hydrazine ligation kinetics, absorbance | – | concentration not given, 10 s, together with: 2-formylphenylboronic acid | – | normalised absorbance | 0.459
CCOC(=O)C1CCN(CCC(=O)Nc2ccccc2F)CC1 | locomotor activity in dark | Danio rerio larvae, 7 dpf, well of 10 larvae | 10 µM, minute 5, dark | – | third-quartile larval motion | 0 pixels/frame
NNC(=O)Cc1ccccc1 | hydrazine ligation kinetics, absorbance | – | concentration not given, 15 s, together with: 2-formylphenylboronic acid | – | normalised absorbance | 0.448
COC1CN([C@H]2CC[C@H]([C@@]3(C)Oc4c(Cl)cc(C(=O)NCc5c(SC)cc(C)[nH]c5=O)c(C)c4O3)CC2)C1 | RNA-seq, refers to: ARPP21 | human, whole blood | dose not given, 24 h | baseline: pretreatment baseline | log2 fold change | 8.33
CC(=O)[O-].O.O.O.O.[Mn+2].[O-]c1ccc(Br)cc1C=NCCN1CCOCC1 | superoxide scavenging | – | 40 µM | – | inhibition | 7.15%
COc1ccccc1-c1ccncc1C(=O)Nc1nnc(OCc2ccc(Cl)cc2)s1 | – | Brca1 Δ11/Δ11 Polq-/- MEFs, mouse | 20 µM | – | colony survival | 14.9% and 12.1% and 6%
COc1cccc(OCC(O)CN2CCN(c3ccccc3OC)CC2)c1 (centres unmarked) | locomotor activity in dark | Danio rerio larvae, 7 dpf, well of 10 larvae | 10 µM, minute 7, dark | – | third-quartile larval motion | 8.5 ± 1.6 pixels/frame
Cc1cccc(C)c1CNc1cc(C(=O)N2CCC2)cn2c(C)c(C)nc12 | gastric acid secretion | dog Heidenhain pouch | oral, 1 mg/kg, 9 h after dosing, together with: histamine | – | inhibition | 100%
OC(COCC1COc2ccccc2O1)CN1CCN(c2ccccc2)CC1 (centres unmarked) | locomotor activity in dark | Danio rerio larvae, 7 dpf, well of 10 larvae | 10 µM, minute 5, dark | – | third-quartile larval motion | 3.7 ± 1.2 pixels/frame
O=C(O)c1c(O)cc(O[C@@H]2O[C@H](CO)[C@@H](O)[C@H](O)[C@H]2O)cc1/C=C/c1ccccc1 | FlexiVent | FVB/N mouse, PPE-induced emphysema | oral gavage, 40 mg/kg, 5 weeks | baseline: vehicle | static lung compliance | decreased
CCOC(=O)NCc1ccc(O[C@@H]2O[C@@H](C)[C@H](O)[C@@H](O)[C@H]2O)cc1 | DPPH radical | – | 300 µg/mL | – | radical scavenging | 6.52 ± 1.01%
COc1ccc(NC(=O)c2ccc3[nH]c(-c4ccc(N(C)C)cc4)nc3c2)cn1 | – | Lewis lung carcinoma, mice, syngeneic graft, subcutaneous | intraperitoneal, 50 mg/kg daily, day 7 | – | tumour volume | 159 mm3 and 293 mm3 and 278 mm3 and 155 mm3
COc1cc2nc(N3CCN(C(=O)C4CCC5(CCC5)O4)CC3)nc(N)c2cc1OC (centres unmarked) | blood pressure | spontaneously hypertensive rat, male | oral, 3 mg/kg | – | time to maximum BP lowering | 15 min

Some of these lines once more:
SMILES | test | test system | conditions | scale | endpoint | value
COc1ccccc1-c1ccncc1C(=O)Nc1nnc(OCc2ccc(Cl)cc2)s1 | – | Brca1 Δ11/Δ11 Polq-/- MEFs, mouse | 20 µM | – | colony survival | 14.9% and 12.1% and 6%
COc1ccc(NC(=O)c2ccc3[nH]c(-c4ccc(N(C)C)cc4)nc3c2)cn1 | – | Lewis lung carcinoma, mice, syngeneic graft, subcutaneous | intraperitoneal, 50 mg/kg daily, day 7 | – | tumour volume | 159 mm3 and 293 mm3 and 278 mm3 and 155 mm3
CCOC(=O)NN | hydrazine ligation kinetics, absorbance | – | concentration not given, 20 s, together with: 2-formylphenylboronic acid | – | normalised absorbance | 0.682
